Published values of several laboratories.
Numbered parts are unrelated; each lists some results of a single study.

Study 1 — technique: universal PBM; molecule type: double-stranded DNA, one strand shown; matrix: in vitro; concentration: 600 nM; reading: higher = stronger binding
Target: Sal-like protein 4, full length isoform A (SALL4, Homo sapiens, UniProt Q9UJQ4, residues 1-1053)
UniProt Q9UJQ4, sequence (whole entry, looked up): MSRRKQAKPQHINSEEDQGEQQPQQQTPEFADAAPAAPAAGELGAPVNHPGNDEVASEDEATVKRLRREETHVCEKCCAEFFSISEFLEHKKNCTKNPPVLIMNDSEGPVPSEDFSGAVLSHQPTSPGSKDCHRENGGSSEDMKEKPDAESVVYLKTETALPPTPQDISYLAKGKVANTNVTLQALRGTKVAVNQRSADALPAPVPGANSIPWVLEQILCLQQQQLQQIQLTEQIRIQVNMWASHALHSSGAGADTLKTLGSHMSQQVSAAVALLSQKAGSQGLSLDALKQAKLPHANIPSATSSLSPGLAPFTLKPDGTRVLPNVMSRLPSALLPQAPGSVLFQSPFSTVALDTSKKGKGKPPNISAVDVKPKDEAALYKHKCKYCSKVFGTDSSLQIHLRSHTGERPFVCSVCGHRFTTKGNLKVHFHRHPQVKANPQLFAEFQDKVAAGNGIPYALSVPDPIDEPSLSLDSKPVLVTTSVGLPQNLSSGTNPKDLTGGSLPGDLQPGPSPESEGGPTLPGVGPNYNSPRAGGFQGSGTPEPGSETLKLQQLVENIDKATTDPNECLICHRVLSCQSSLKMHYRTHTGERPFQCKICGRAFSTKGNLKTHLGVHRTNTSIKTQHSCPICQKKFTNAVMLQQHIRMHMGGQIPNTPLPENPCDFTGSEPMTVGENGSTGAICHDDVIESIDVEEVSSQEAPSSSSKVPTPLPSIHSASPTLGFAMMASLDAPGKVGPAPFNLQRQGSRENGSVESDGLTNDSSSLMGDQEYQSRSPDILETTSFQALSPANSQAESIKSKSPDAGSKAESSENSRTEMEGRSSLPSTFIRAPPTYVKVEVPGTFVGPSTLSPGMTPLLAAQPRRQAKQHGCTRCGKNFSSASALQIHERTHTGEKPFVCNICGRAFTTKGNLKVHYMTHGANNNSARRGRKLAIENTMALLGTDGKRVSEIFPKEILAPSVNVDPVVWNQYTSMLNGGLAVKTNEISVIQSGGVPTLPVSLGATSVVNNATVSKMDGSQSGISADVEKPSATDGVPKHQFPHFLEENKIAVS
Setting: 8-mer, flanks averaged, mean of replicates
For `TTCCGCAA`, the E-score was 0.0492.
With `CACATAAG` the E-score was 0.191.
`AATAATGA` has an E-score of 0.34.
For `ATTCTGCC`, the E-score was -0.0403.
The E-score of `GCCCTAGC` is reported as -0.166.
The E-score of `ATAAATCG` is reported as 0.272.
`GACTCCGA` has an E-score of -0.213.
With `AGTGCCCA` the E-score was -0.228.

Study 2 — cell line: HEK-293T/ACE2; concentration: concentration not given; time: 16 (unit not given); baseline: vehicle
For `CCCNC(=O)NS(=O)(=O)c1ccc(Cl)cc1`, the viability was 104%.
For `CC#CCn1c(N2CCC[C@@H](N)C2)nc2c1c(=O)n(Cc1nc(C)c3ccccc3n1)c(=O)n2C`, the viability was 108%.
The viability of `C[C@]12CC[C@@H]3c4ccc(OC(=O)c5ccccc5)cc4CC[C@H]3[C@@H]1CC[C@@H]2O` is reported as 102%.
With `CC(C)c1ccc2oc3nc(N)c(C(=O)O)cc3c(=O)c2c1` the viability was 104%.

Study 3 — read-out: enzyme activity; mode: inhibitor; concentration: 20 µM
Target: Replicase polyprotein 1ab, polymerase (rep, Severe acute respiratory syndrome coronavirus 2, UniProt P0DTD1)
For `NNCCc1ccccc1`, the inhibition was 20.8%.
With `COC1(C2=NCCN2)COc2ccccc2O1` (stereo not shown) the inhibition was -1.52%.
`CC1=C(/C=C/C(C)=C/C=C/C(C)=C/C=C/C=C(C)/C=C/C=C(C)/C=C/C2=C(C)C(=O)[C@@H](O)CC2(C)C)C(C)(C)C[C@H](O)C1=O` has an inhibition of 5.39%.
The inhibition of `CN1C(=O)N(c2cc(Cl)cc(Cl)c2)C(=O)[C@]12CN(Cc1cc(C(=O)O)cs1)C[C@H]2c1ccc(C#N)cc1` is reported as -11.9%.
The inhibition of `COCC(=O)Nc1c(I)c(C(=O)NCC(O)CO)c(I)c(C(=O)N(C)CC(O)CO)c1I` (mixture of isomers) is reported as -1.24%.
With `N=C1CCCN1Cc1[nH]c(=O)[nH]c(=O)c1Cl` the inhibition was -9.41%.
For `C[N+](C)(C)CCCCCNCC12CC3CC(CC(C3)C1)C2`, the inhibition was 1.45%.
`CCOC(=O)C(=O)Nc1cccc(OC)c1C(N)=O` gave an inhibition of 2.57%.
`O=C(O)C(=O)CBr` has an inhibition of -4.28%.
The inhibition of `Nc1nc(=O)c2nc(CNc3ccc(C(=O)N[C@@H](CCC(=O)O)C(=O)O)cc3)cnc2[nH]1` is reported as 37.3%.
The inhibition of `O=C(c1ccc(CN2CCOCC2)cc1)N1CCN(C2CC2)CC1` is reported as -1.08%.
`C=CCN1CC[C@]23c4c5ccc(O)c4O[C@H]2/C(=N/NC(=O)c2ccccc2)CC[C@@]3(O)[C@H]1C5` gave an inhibition of 0.15%.
`Cn1cc(C(=O)C(=O)NC2CN3CCC2CC3)c2ccccc21` (stereo not shown) has an inhibition of 7.47%.
`c1ccc(-c2oc3ncnc(NC[C@@H]4CCCO4)c3c2-c2ccccc2)cc1` gave an inhibition of -0.08%.
`Nc1nc(NC2CC2)cc(-c2cccc(Cl)c2Cl)n1` has an inhibition of 8.02%.
For `NC(=O)c1cc(N2CC2)c([N+](=O)[O-])cc1[N+](=O)[O-]`, the inhibition was 0.65%.
`C[C@@H](O)[C@H](N)C(=O)N1CCC[C@H]1C(=O)N1CCC[C@H]1C(=O)N[C@H](C(N)=O)[C@@H](C)O` gave an inhibition of 3.64%.
With `Nc1nc(-c2ccc(Cl)c(Cl)c2)c(-c2ccncc2)s1` the inhibition was 2.34%.
`CNCCc1ccc(O)c(O)c1` has an inhibition of -4.24%.
`O=C(O)c1ccccc1Nc1cccc(OCc2ccc3ccccc3n2)c1` gave an inhibition of 1.9%.
The inhibition of `CN(C)CCCC(=O)Nc1ccc(C(=O)Nc2cccc(Nc3ncc(Cl)c(-c4c[nH]c5ccccc45)n3)c2)cc1` is reported as 14.3%.
For `CCCc1c(OCCCCc2nnn[nH]2)ccc(C(C)=O)c1O`, the inhibition was -4.11%.
For `CN1CCN(CCCN2c3ccccc3Sc3ccc(C(F)(F)F)cc32)CC1`, the inhibition was -1.47%.
With `CC(=O)Nc1c(I)c(C(=O)O)c(I)c(N(C)C(C)=O)c1I` the inhibition was -3.25%.
The inhibition of `O=C(CCCCCCNC(=O)c1cnc(N(c2ccccc2)c2ccccc2)nc1)NO` is reported as 1.82%.

Study 4 — technique: competition protein-binding microarray; molecule type: double-stranded DNA, one strand shown; matrix: in vitro; concentration: 2 µM; added: Cbf1 competitor, 0.05 µM; reading: higher = stronger binding; constant ends, left off below: … GTCTTGATTCGCTTGACGCTGCTG
Target: Phosphate system positive regulatory protein PHO4, full length, GST-tagged (PHO4, Saccharomyces cerevisiae, UniProt P07270, residues 1-312)
Setting: whole 60-bp probe, lowest competitor level
Residues (chain): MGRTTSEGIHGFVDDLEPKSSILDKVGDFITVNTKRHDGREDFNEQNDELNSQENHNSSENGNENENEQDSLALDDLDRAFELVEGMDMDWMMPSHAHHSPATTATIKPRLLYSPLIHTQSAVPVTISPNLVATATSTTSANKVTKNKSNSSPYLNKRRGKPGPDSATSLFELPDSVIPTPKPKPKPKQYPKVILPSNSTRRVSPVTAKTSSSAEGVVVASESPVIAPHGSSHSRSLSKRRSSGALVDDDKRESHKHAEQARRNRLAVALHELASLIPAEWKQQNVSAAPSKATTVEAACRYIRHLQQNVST
The fluorescence intensity of `CGTCCTAGTGATTGTGTTGTGGGTGCCATGAGGAAG` is reported as 6930 a.u.
For `CTTCTGTAAATTTTTCACGTGTCCTGACGCGCCCCG`, the fluorescence intensity was 12100 a.u.
With `ACAAATATCGCGAACCGCGTGAAGTGGCTTAGTTTT` the fluorescence intensity was 5760 a.u.
`CGATGTGTTTACCATCACGGGAATCAGAAATATGTT` gave a fluorescence intensity of 4840 a.u.
`CTAACGAAGGTTTGGGTCGTGGGTGACAAGCCAAGT` has a fluorescence intensity of 8790 a.u.
`TGACCGTTTTGTCTTCAGGTGATGAAGCAAACAACT` gave a fluorescence intensity of 3730 a.u.
For `CGTCCTAGTGATTGCAATGTGGGTGCCATGAGGAAG`, the fluorescence intensity was 7570 a.u.
`AGCCTTCCCGGCAGATTAATTCAATGGGAGTTGCCG` gave a fluorescence intensity of 2250 a.u.

Study 5 — technique: protein-binding microarray; molecule type: double-stranded DNA, one strand shown; matrix: in vitro; concentration: not given; reading: higher = stronger binding
Target: Myc proto-oncogene protein, bHLH-zipper, MAX partner unstated (MYC, Homo sapiens, UniProt P01106, residues 368-449)
UniProt P01106, sequence (368-449, looked up): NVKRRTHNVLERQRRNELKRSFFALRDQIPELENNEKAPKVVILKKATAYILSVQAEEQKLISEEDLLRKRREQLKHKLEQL
Setting: k-mer, scored over probes, only values ≥0.25
`ATGGTCTC` has an E-score of 0.263.
For `CGCACCTC`, the E-score was 0.262.
`ACGTGACG` has an E-score of 0.306.
With `CGTGGGCC` the E-score was 0.319.
The E-score of `ACATGTGC` is reported as 0.478.
For `ATGAGGGC`, the E-score was 0.378.
With `CACGCCTA` the E-score was 0.344.
With `CGTGACTA` the E-score was 0.367.

Other studies, line by line
For `CC(C)C[C@@H](C=O)NC(=O)[C@H](CC(C)C)NC(=O)[C@H](CC(C)C)NC(=O)OCc1ccccc1`, the EC50 was 120 nM (SARS-CoV-2; viral RNA; Vero E6).
`Oc1c(I)cc(I)c(O)c1I` has an inhibition of -18.8% (Replicase polyprotein 1ab, main protease (rep, Severe acute respiratory syndrome coronavirus 2, UniProt P0DTD1); enzyme activity, inhibitor; 20 µM).
